# Published values from different studies.
# Lines come from different studies, so protocols differ.
# Organism: Mycobacterium tuberculosis
SMILES,read-out,method,strain,medium,time,setting,MIC
CO[C@H]1/C=C/O[C@@]2(C)Oc3c(C)c(O)c4c(O)c(c(/C=N/N5CCN(C)CC5)c(O)c4c3C2=O)NC(=O)/C(C)=C\C=C\[C@H](C)[C@H](O)[C@@H](C)[C@@H](O)[C@@H](C)[C@H](OC(C)=O)[C@@H]1C,microbial growth,resazurin,H37RV,,,,0.01 µM
NNC(=O)c1ccncc1,microbial growth,resazurin,H37RV,,7 days,,0.055 µg/mL
Nc1ccc(C(=O)O)c(O)c1,,microplate Alamar Blue,H37Rv,,,,81.6 µM
COc1ccccc1Cn1[se]c2ccccc2c1=O,microbial growth,resazurin,H37RV,,,,12.5 µg/mL
Cc1c2c([nH]c(=O)c1CNC(=O)c1ccc([N+](=O)[O-])s1)CCCC2,microbial growth,resazurin,H37RV,,,,5.5 µg/mL
O=C(c1cc2c(F)cc(F)cc2[nH]1)N1CCNCC1,,microplate alamarBlue,H37Rv,,,,> 32 µg/mL
Cc1c(Cc2ccc(F)c(F)c2F)c(=O)n2c([nH]c3ccccc32)c1C#N,microbial growth,resazurin,H37RV,,,,0.5 µg/mL
N#Cc1cc2cccnc2nc1N1CCN(C(=O)CNc2ccc(Br)cc2[N+](=O)[O-])CC1,,microplate Alamar Blue,H37Rv,,,,> 101 µM
CC(C)c1ccc(-c2nc(CN3CC[Si](C)(C)CC3)co2)cc1,microbial growth,resazurin,H37RV,,,,0.5 to 1 µg/mL
Cc1[nH]c(=O)c(CNC(=O)c2ccc([N+](=O)[O-])s2)c2c1CCC2,microbial growth,resazurin,H37RV,,,,> 50 µg/mL
CC(C)(C)Nc1oc2c(c1-c1cccc(Br)c1)C(=O)c1ccccc1C2=O,,resazurin microplate,H37Rv,,7 days + 24 h,,> 147 µM
Cc1[nH]c(=O)c(CNC(=O)c2ccc([N+](=O)[O-])s2)c2c1CCCC2,microbial growth,resazurin,H37RV,,,,5.4 µg/mL
Cc1c(Cc2ccccc2)c(=O)n2c([nH]c3ccccc32)c1C#N,microbial growth,resazurin,H37RV,,,,8 µg/mL
CC(NC(=O)c1cc2cc(Cl)ccc2[nH]1)C12CC3CC(CC(C3)C1)C2 (centres unmarked),,microplate alamarBlue,H37Rv,,,,1 µg/mL
N#Cc1cc2cccnc2nc1N1CCNCC1,,microplate Alamar Blue,H37Rv,,,,104 µM
Cc1c(CNC(=O)c2cnc(C(F)(F)F)nc2)c(=O)[nH]c2ccccc12,microbial growth,resazurin,H37RV,,,,> 50 µg/mL
CO[C@H]1/C=C/O[C@@]2(C)Oc3c(C)c(O)c4c(O)c(c(/C=N/N5CCN(C)CC5)c(O)c4c3C2=O)NC(=O)/C(C)=C\C=C\[C@H](C)[C@H](O)[C@@H](C)[C@@H](O)[C@@H](C)[C@H](OC(C)=O)[C@@H]1C,,,"H37Rv, replicating",,,,0.1 µM
Cc1[nH]c(=O)c(CNC(=O)c2ccc(F)nc2)c2c1CCCC2,microbial growth,resazurin,H37RV,,,,1.6 µg/mL
N#Cc1cc2cccnc2nc1N1CCN(C(=O)CNc2ccc(F)cc2)CC1,,microplate Alamar Blue,H37Rv,,,,67.1 µM
CC(C)=CCC/C(C)=C/CNCCNC1C2CC3CC(C2)CC1C3 (centres unmarked),microbial growth,resazurin,ATCC27294 H37RV,,,,≤ 0.39 µg/mL
Cc1c2c([nH]c(=O)c1CNC(=O)c1ccc(Cl)nc1)CCCC2,microbial growth,resazurin,H37RV,,,,> 50 µg/mL
Cc1c(Cc2ccc(Cl)cc2)c(=O)n2c([nH]c3ccccc32)c1C#N,microbial growth,resazurin,H37RV,,,,0.5 µg/mL
COc1cccc2[nH]c(C(=O)NC(C)C34CC5CC(CC(C5)C3)C4)cc12 (centres unmarked),,microplate alamarBlue,H37Rv,,,,1 µg/mL
Cc1c(Cc2ccc(F)cc2F)c(=O)n2c([nH]c3ccccc32)c1C#N,microbial growth,resazurin,H37RV,,,,0.25 µg/mL
Cc1[nH]c(=O)c(CNC(=O)c2ccc(F)nc2)c2c1CCC2,microbial growth,resazurin,H37RV,,,,> 50 µg/mL
Cc1c(Cc2ccc(Cl)nc2)c(=O)n2c([nH]c3ccccc32)c1C#N,microbial growth,resazurin,H37RV,,,,0.5 µg/mL
CC(=O)NCN1N=C(C)C(=NNn2c(-c3ccccc3)nc3ccccc3c2=O)C1=O,,microplate alamar blue,H37Rv,,,,14.3 µM
COc1ccc(-c2c(NC(C)(C)C)oc3c2C(=O)c2ccccc2C3=O)cc1OC,,resazurin microplate,H37Rv,,7 days + 24 h,,> 147 µM
O=C(OCc1ccccc1)c1csc(-c2ccccc2)n1,,,drug-sensitive clinical strain 2,7H9 glucose glycerol BSA medium,,,2.5 µg/mL
CCCCCCCCCCCCCC(=O)NS(=O)(=O)OC[C@H]1O[C@@H](n2cnc3c(N)ncnc32)[C@H](O)[C@@H]1O,,,MDR and XDR strains,,,,3.13 to 25 µM
[N-]=[N+]=Nc1ccc(-n2[se]c3ccccc3c2=O)cc1,microbial growth,resazurin,H37RV,,,,25 µg/mL
O=C(OCc1ccccc1)[C@@H]1COC(c2ccncc2)=N1,,,H37Rv,,168 h,,> 50 µM
CCc1ccc(NCC(=O)N2CCN(c3nc4ncccc4cc3C#N)CC2)cc1,,microplate Alamar Blue,H37Rv,,,,31.2 µM
CCCc1c2c([nH]c(=O)c1C)C(=O)c1[nH]c(=O)c(C)c(CCC)c1C2=O,,Microplate Alamar Blue,H37Rv,,,replicating bacteria,0.1 µg/mL
Cc1ccc(-n2nnc3c2CCC2(C=Cc4cc(Cl)c(C)cc4O2)C3)cc1 (centres unmarked),,MABA,H37Rv,,7 days,,> 25 µg/mL
O=C(NC(=O)c1cc2c(F)cc(F)cc2[nH]1)c1cccc(F)c1,,microplate alamarBlue,H37Rv,,,,> 32 µg/mL
CC(C)(C)Nc1oc2c(c1-c1cc3ccccc3[nH]1)C(=O)c1ccccc1C2=O,,resazurin microplate,H37Rv,,7 days + 24 h,,42 µM
COc1cccc(Nc2ccc3nonc3c2N)c1,microbial growth,,H37RV,,,,250 µM
O=C1c2ccccc2C(=O)c2c1oc(NC1CCCCC1)c2C1CCN(Cc2ccccc2)CC1,,resazurin microplate,H37Rv,,7 days + 24 h,,17 to 34 µM
O=C(NC12CC3CC(CC(O)(C3)C1)C2)c1cc2c(Cl)cc(Cl)cc2[nH]1,microbial growth,resazurin,H37RV,,,,1.32 to 2.89 µM
COc1ccc(-n2nnc3c2CCC2(C=Cc4cc(C)ccc4O2)C3)cc1 (centres unmarked),microbial growth,resazurin,H37RV,,7 days,,1.56 µg/mL
CCc1ccc(NC(=O)CN2CCN(c3nc4ncccc4cc3C#N)CC2)cc1,,microplate Alamar Blue,H37Rv,,,,62.4 µM
Cn1ncc2cc(-c3c(NC4CCCCC4)oc4c3C(=O)c3ccccc3C4=O)ccc21,,resazurin microplate,H37Rv,,7 days + 24 h,,150 µM
[N-]=[N+]=Nc1ccc(NC(=O)c2ccccc2[Se]C#Cc2ccccc2)cc1,microbial growth,resazurin,H37RV,,,,≥ 50 µg/mL
COc1ccc(-c2ccc(C(=O)NCc3c4c(c(C)[nH]c3=O)CCCC4)cc2)cc1,microbial growth,resazurin,H37RV,,,,25 µg/mL
Cc1cc2c(cc1Cl)C=CC1(CCc3c(nnn3-c3ccccc3)C1)O2 (centres unmarked),microbial growth,resazurin,H37RV,,7 days,,3.12 µg/mL
N#Cc1cc2cccnc2nc1N1CCN(C(=O)CNc2ccccc2F)CC1,,microplate Alamar Blue,H37Rv,,,,64 µM

# Repeated from above:
SMILES,read-out,method,strain,medium,time,setting,MIC
N#Cc1cc2cccnc2nc1N1CCN(C(=O)CNc2ccc(Br)cc2[N+](=O)[O-])CC1,,microplate Alamar Blue,H37Rv,,,,> 101 µM
CCCc1c2c([nH]c(=O)c1C)C(=O)c1[nH]c(=O)c(C)c(CCC)c1C2=O,,Microplate Alamar Blue,H37Rv,,,replicating bacteria,0.1 µg/mL
Cc1c2c([nH]c(=O)c1CNC(=O)c1ccc([N+](=O)[O-])s1)CCCC2,microbial growth,resazurin,H37RV,,,,5.5 µg/mL
Cc1[nH]c(=O)c(CNC(=O)c2ccc([N+](=O)[O-])s2)c2c1CCC2,microbial growth,resazurin,H37RV,,,,> 50 µg/mL
CC(C)(C)Nc1oc2c(c1-c1cccc(Br)c1)C(=O)c1ccccc1C2=O,,resazurin microplate,H37Rv,,7 days + 24 h,,> 147 µM
